Published values gathered from unrelated publications.
Numbered parts are unrelated; each lists some results of a single study.

Block 1
Target: Interferon regulatory factor 3, full length, phosphomimetic (IRF3, Homo sapiens, UniProt Q14653, residues 1-427, S386D/S396D/S398D/S402D/T404D/S405D)
UniProt Q14653, sequence (whole entry, unmodified, looked up): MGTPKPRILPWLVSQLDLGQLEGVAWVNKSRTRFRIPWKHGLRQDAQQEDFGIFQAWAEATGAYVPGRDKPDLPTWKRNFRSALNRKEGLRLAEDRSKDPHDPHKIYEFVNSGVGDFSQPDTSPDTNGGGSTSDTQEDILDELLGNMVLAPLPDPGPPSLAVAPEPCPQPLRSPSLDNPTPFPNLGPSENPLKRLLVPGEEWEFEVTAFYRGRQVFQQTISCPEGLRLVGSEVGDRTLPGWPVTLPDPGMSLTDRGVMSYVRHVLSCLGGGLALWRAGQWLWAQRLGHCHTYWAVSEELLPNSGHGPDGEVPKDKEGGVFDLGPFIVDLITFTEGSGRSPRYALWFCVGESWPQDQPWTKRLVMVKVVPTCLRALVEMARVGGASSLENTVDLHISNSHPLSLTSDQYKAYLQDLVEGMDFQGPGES
Method: protein-binding microarray
Molecule type: double-stranded DNA, one strand shown
Matrix: in vitro
Concentration: 2540 nM top
Setting: 60-bp whole probe
Together with: salmon DNA 0.4 mg/ml
Baseline: random background probes
Direction: higher = stronger binding
Strand	fitted relative affinity
GCCTAGCACCGACATCTGCAAGATCCACAAGTGCTAGTCTTGATTCGCTTGACGCTGCTG	0.124 z-score
GCCTAGCACTTCATTCCTGATCTCTGGTCGTGCTAGGTCTTGATTCGCTTGACGCTGCTG	0.817 z-score
GCCTAGCACTTAGAACTGAGTCTCGAATAGTGCTAGGTCTTGATTCGCTTGACGCTGCTG	-0.408 z-score
GCCTAGCACTCAGATCTCCGAGATGCCACTGTGCTAGTCTTGATTCGCTTGACGCTGCTG	0.696 z-score

Block 2
Target: Histone acetyltransferase KAT6A, winged helix 2, GST fusion (KAT6A, Homo sapiens, UniProt Q92794, residues 85-181)
Method: protein binding microarray
Molecule type: double-stranded DNA, one strand shown
Matrix: in vitro
Concentration: not given
Setting: 8-mer, flanks averaged, mean of 2 arrays, mostly near background
Baseline: not given
Direction: higher = stronger binding
Construct (chain): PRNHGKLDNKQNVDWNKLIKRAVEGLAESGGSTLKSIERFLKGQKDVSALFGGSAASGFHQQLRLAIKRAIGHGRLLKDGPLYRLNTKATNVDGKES
Strand	E-score
AGATGATA	0.0699
AAAGCGTG	-0.0854
AGCTTGTA	0.0656
GCGTATAA	0.118
AACCGCCG	0.0654

Block 3
Target: RING finger protein unkempt homolog, zinc fingers 1-6, GST-SBP tag (UNK, Homo sapiens, UniProt Q9C0B0, residues 30-357)
UniProt Q9C0B0, sequence (30-357, looked up): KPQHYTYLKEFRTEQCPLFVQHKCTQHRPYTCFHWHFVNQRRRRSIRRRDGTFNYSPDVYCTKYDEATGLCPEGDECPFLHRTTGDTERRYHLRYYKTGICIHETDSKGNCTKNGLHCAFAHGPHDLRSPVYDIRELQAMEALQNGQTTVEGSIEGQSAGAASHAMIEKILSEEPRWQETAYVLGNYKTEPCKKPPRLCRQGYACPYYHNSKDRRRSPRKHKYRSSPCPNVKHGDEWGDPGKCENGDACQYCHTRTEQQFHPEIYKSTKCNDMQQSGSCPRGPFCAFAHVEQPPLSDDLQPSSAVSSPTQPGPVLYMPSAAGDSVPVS
Method: RNA Bind-n-Seq
Molecule type: RNA
Matrix: in vitro
Concentration: not given
Setting: RNA with constant flanks, human and mouse sites, ends assumed
Baseline: input RNA pool
Direction: higher = stronger binding
Strand	bound/input enrichment [ratio]
GGGAGUUCUACAGUCCGACGAUCAUGAACUUGAGGUUCCUUGAAUUUGCGAGGUGUGGAAAGACUACUUGACUGUCUGUCCAGCUUAGCUGUUAUGUUUUUUGGGGGGGAGGGGUGAUGUGUUAAGAGUGAGUGGUACACUGGCAACAGAGGAUUGAGCAUCA	0.599
GGGAGUUCUACAGUCCGACGAUCAAAUCCAAAGCUCGUCGAUGCCGAGUACACCAAAAACCAGGCCUGGAAGUCUAUGAAAGAUACUCUGGGAAAGCCAGCCGCUAAGGAUGUACACCUCAUAGAUCACUGCAAAUACAGAUACAACAGAGGAUUGAGCAUCA	0.134
GGGAGUUCUACAGUCCGACGAUCACUGGAUUUUGUAGCUUUUAUUCUGGAAGUCAGUUUGUCCCAGCUGAUCAGAAUUUGCCUCAGAAGUUCCUAAGUGAUGCUGUUCAGGAUCUUUUUCCAGGACAAGCUAUAGAAAAAAAUCAACAGAGGAUUGAGCAUCA	0.605
GGGAGUUCUACAGUCCGACGAUCGCACAGAUUCAUCAGUUCAGAGAGGAUUCAUUGGAUAGUGUUCUUUUUCUCAAAAAGAUCGAUAGAUGCUGGCAAAACCACUGUAGGCAAAUGAUAAUGAUCAGGAGCAUUUUUUUGUUUCAACAGAGGAUUGAGCAUCA	0.245

Other studies, line by line
Molecule	target	assay	system	setting	scale	measurement	result
PhoQ, residues 284 288 289 292 302 303 SSTLSG	PhoP, residues 12 14 15 18 19 LYFRQ (Escherichia coli, UniProt P23836)	Sort-seq, measured: YFP reporter	E. coli	PhoQ-PhoP variant library, together with: 10 µM Mg2+	baseline: high Mg2+ state, higher = stronger signaling	fold induction	4.74

Some of these lines once more (block 2):
Strand	E-score
GCGTATAA	0.118
AACCGCCG	0.0654
